Results gathered from unrelated publications.
± gives the spread as reported.

Compound = Nc1ncc(-c2cc(-c3cnn(CC(F)(F)F)c3)ncc2F)nc1C(=O)NC1CNCC(F)C1 (stereo not drawn); target or system = AXL; test = KINOMEscan; setting = 1 µM; how to read = relative to: DMSO control; measurement = remaining binding; result = 20%
Compound = COc1cc([C@@H]2O[C@@H](c3cc(OC)c(O[C@@H]4O[C@H](CO)[C@@H](O)[C@H](O)[C@H]4O)c(OC)c3)[C@H](CO)[C@H]2CO)cc(OC)c1O; target or system = PCS-210-010 human pre-adipocytes; test = lipid accumulation, Oil Red O staining; setting = 5 µM, early differentiation; how to read = relative to: vehicle; measurement = inhibition; result = > 50%
Compound = Cc1nc(=S)[nH]c(C)c1/N=N/c1nnc(S)s1; target or system = Vero; test = cell viability, MTT; setting = 10.0 µg/mL; measurement = inhibition; result = 17.7 ± 0.518%
Compound = COc1cc(NC(=O)c2cnn(-c3ccc([N+](=O)[O-])cc3)c2C(F)(F)F)c(OC)cc1Cl; target or system = LX-2; test = cell growth or viability, MTS; setting = 50 µM, 72 h; measurement = inhibition; result = 2.08%
Compound = Cc1nc(=S)[nH]c(C)c1/N=N/c1nnc(S)[nH]1; target or system = Vero; test = cell viability, MTT; setting = 10.0 µg/mL; measurement = inhibition; result = 22.9 ± 0.61%
Compound = CCOC(=O)c1cn(CC(c2c[nH]c3cc(Br)ccc23)c2c[nH]c3cc(Br)ccc23)c(C)c1C(=O)OC; target or system = human Fibroblast; test = cell growth or viability, MTS; setting = 20 µM, 24 h; measurement = inhibition; result = 6.5%
Compound = CC(C)(C)c1ccc(NC(=O)c2cnn(-c3ccc([N+](=O)[O-])cc3)c2C(F)(F)F)cc1; target or system = LX-2; test = cell growth or viability, MTS; setting = 50 µM, 72 h; measurement = inhibition; result = 14.5%
Compound = COCCn1cc(COc2cccc(Cc3cnc(NC(=O)C(C)c4ccc(CC(C)C)cc4)s3)c2)nn1 (stereo not drawn); target or system = HGC-27; test = cell viability, MTS; setting = 10 µM; measurement = inhibition; result = 11.6 ± 6.6%
Compound = Cn1ncc2cc(-c3cncc(Cl)c3N3CCC4(CCNC4=O)CC3)ccc21; target or system = LS174T; test = gene expression, microarray, item: EXD3 mRNA; setting = concentration not given, 24 h; how to read = relative to: untreated cells; measurement = log2 fold change; result = 2.23
Compound = COC1CN([C@H]2CC[C@H]([C@@]3(C)Oc4c(Cl)cc(C(=O)NCc5c(SC)cc(C)[nH]c5=O)c(C)c4O3)CC2)C1; test = RNA-seq, item: GRAMD1C; test system = human, whole blood; setting = dose not given, 24 h; how to read = relative to: pretreatment baseline; measurement = log2 fold change; result = 1.89
Compound = C=CC(=O)Nc1cccc(Cn2ncc3cnc(Nc4cnn(CCOC)c4)nc32)c1; target or system = human IKK-beta; test = KINOMEscan; setting = 100 nM; how to read = relative to: control; measurement = binding; result = 98%
Compound = Cc1cc(C)nc(SCC(=O)Nc2ncc(Cc3cccc4ccccc34)s2)n1; target or system = HGC-27; test = cell viability, MTS; setting = 10 µM; measurement = inhibition; result = 27.2 ± 10.1%
Compound = Cc1ncsc1-c1ccc(C(C)NC(=O)C2CC(O)CN2C(=O)C(NC(=O)CCCCCCCCCCN2CCCC(Nc3ncc(Cl)c(Nc4ccccc4S(=O)(=O)C(C)C)n3)C2)C(C)(C)C)cc1 (stereo not drawn); target or system = 22Rv1; test = RNA-seq, item: PGBD5 mRNA; setting = concentration not given; how to read = relative to: DMSO; measurement = log2 fold change; result = -2.05
Compound = Cc1nc2c(F)cc(-c3nc(Nc4ccc(C(=O)NCCCCCC(=O)NO)cc4)ncc3F)cc2n1C(C)C; target or system = SK-OV-3; test = cell growth or viability, CCK-8; setting = 0.3 µM, 48 h; measurement = inhibition; result = 56.5%
Compound = CCc1ccc(OCc2nnc(SC3CCCC3=O)n2C(C)c2ccccc2)cc1 (stereo not drawn); target or system = STF3A reporter cells; test = Wnt STF3A reporter, inhibitor; setting = 10 µM, 24 h, viability-normalized; measurement = inhibition; result = 64.2%
Compound = CN1CCCNC(=O)c2cccc(c2)C(=O)NCCCN(C)CCCNc2cccc3c2C(=O)c2cccc(c2C3=O)NCCC1; target or system = SAS; test = RNA-Seq, item: MPHOSPH8 mRNA; setting = 1 µM, 6 h; how to read = relative to: untreated cells; measurement = log2 fold change; result = -0.677
Compound = Cc1c(CN(C)C(=O)/C=C/c2cnc3c(c2)CC(N)C(=O)N3)oc2ccccc12 (stereo not drawn); target or system = IMR-90; test = cell growth or viability, resazurin; setting = 30 µM, 72 h; measurement = inhibition; result = 30%
Compound = CNS(=O)(=O)Nc1nccc(Cc2c(C)c3ccc(Oc4ncccc4F)cc3oc2=O)c1F; target or system = HCC1395; test = cell viability; setting = 7 days; measurement = IC50; result = > 1000 nM
Compound = Cc1[nH]c(=S)[nH]c(=O)c1/N=N/c1nnc(S)s1; target or system = Vero; test = cell viability, MTT; setting = 5.0 µg/mL; measurement = inhibition; result = 20 ± 0.392%
Compound = COc1cccc2c1cc1c3c(cc4c(c32)OCO4)[C@@H]2c3c4c5c(cc6c(c5c5cccc(OC)c35)OCO6)CCN4[C@@H]2N1C (racemic); target or system = MOLT-3; test = cytotoxicity, XTT; setting = 50 µg/mL, 48 h, 20% fetal bovine serum; measurement = inhibition; result = < 50%
Compound = Nc1ncn([C@@H]2O[C@H](CO)[C@@H](O)[C@H]2O)c(=O)n1; target or system = AML blasts, primary, RUNX1-mutated; test = CD34+ blast expansion; setting = 270 nM, HUVEC co-culture; measurement = inhibition; result = 0%

A few entries again:
Compound = Nc1ncn([C@@H]2O[C@H](CO)[C@@H](O)[C@H]2O)c(=O)n1; target or system = AML blasts, primary, RUNX1-mutated; test = CD34+ blast expansion; setting = 270 nM, HUVEC co-culture; measurement = inhibition; result = 0%
Compound = COc1cccc2c1cc1c3c(cc4c(c32)OCO4)[C@@H]2c3c4c5c(cc6c(c5c5cccc(OC)c35)OCO6)CCN4[C@@H]2N1C (racemic); target or system = MOLT-3; test = cytotoxicity, XTT; setting = 50 µg/mL, 48 h, 20% fetal bovine serum; measurement = inhibition; result = < 50%
Compound = Cc1nc(=S)[nH]c(C)c1/N=N/c1nnc(S)s1; target or system = Vero; test = cell viability, MTT; setting = 10.0 µg/mL; measurement = inhibition; result = 17.7 ± 0.518%
